Measured values of several laboratories.
Several values in a cell are separate wells, animals, samples, runs or records. ≈ marks a conversion by molar mass, not a printed value.
Organism: Staphylococcus aureus

Compound	test	test system	conditions	how to read	endpoint	result
CO/N=C(\C(=O)N[C@@H]1C(=O)N2C(C(=O)O)=C(CSC(=O)c3ccco3)CS[C@H]12)c1csc(N)n1	–	CAAS-2019-CAAS-2019-10 clinical blaZ-resistant isolate, 25% plasma	–	–	MBC	32 µg/mL
CC(C)C[C@H](NC(=O)CNC(=O)CNC(=O)CNC(=O)[C@H](Cc1ccc(O)cc1)NC(=O)[C@H](CC(C)C)NC(=O)[C@@H](NC(=O)CNC(=O)[C@H](Cc1ccc(O)cc1)NC(=O)[C@H](CCCCN)NC(=O)[C@H](CC(N)=O)NC(=O)[C@@H](NC(=O)[C@H](CCCCN)NC(=O)[C@H](Cc1c[nH]c2ccccc12)NC(=O)CN)[C@@H](C)O)[C@@H](C)O)C(=O)N[C@@H](CCCCN)C(=O)N[C@@H](CCCCN)C(=O)N[C@@H](CC(C)C)C(=O)N[C@@H](CC(C)C)C(=O)N[C@@H](CC(C)C)C(=O)N[C@@H](CC(C)C)C(=O)N[C@@H](CC(C)C)C(=O)N[C@@H](CCCCN)C(=O)N[C@@H](CCCCN)C(=O)N[C@@H](CC(C)C)C(=O)NCC(=O)O	–	ATCC 25923	with: 150 mM NaCl	–	MIC	16 µg/mL (≈ 5.59 µM)
CC[C@H](C)[C@H](NC(=O)[C@H](CCCCN)NC(=O)[C@H](CCCCN)NC(=O)[C@H](Cc1ccccc1)NC(=O)[C@@H](NC(=O)[C@@H](NC(=O)[C@H](CCCNC(=N)N)NC(=O)[C@H](Cc1ccccc1)NC(=O)[C@@H](NC(=O)[C@H](CCCCN)NC(=O)[C@H](CCCCN)NC(=O)[C@@H](N)CCSC)[C@@H](C)CC)C(C)C)[C@@H](C)CC)C(=O)N[C@@H](CC(C)C)C(=O)N[C@@H](CCCCN)C(=O)N[C@@H](CCCNC(=N)N)C(=O)N[C@@H](CC(C)C)C(=O)N[C@H](C(=O)N[C@H](C(=O)O)C(C)C)[C@@H](C)CC	broth microdilution	ATCC 25923	–	–	MBC	8 µg/mL (≈ 3.52 µM)
C=CC[C@@H]1c2ccc(OC)c(OC)c2CN2CCc3cc4c(cc3[C@H]12)OCO4	–	P2rx7 A312V/A312V mice, skin wound infection	dose not given, day 7	reference: day 0	relative wound size	0.36 and 0.81 and 0.74 and 0.97 and 0.39 and 0.52
OB(O)c1csc2ccccc12	OD600	USA300 fphE::Tn transposon mutant	50 µM	reference: wild type	growth	63.6% and 65.3% and 54.5% and 61.5% and 57.4% and 48.4%
CN[C@H](CC(C)C)C(=O)N[C@H]1C(=O)N[C@@H](CC(N)=O)C(=O)N[C@H]2C(=O)N[C@H]3C(=O)N[C@H](C(=O)N[C@H](C(=O)O)c4cc(O)cc(O)c4-c4cc3ccc4O)[C@H](O)c3ccc(c(Cl)c3)Oc3cc2cc(c3O[C@@H]2O[C@H](CO)[C@@H](O)[C@H](O)[C@H]2O[C@H]2C[C@](C)(N)[C@H](O)[C@H](C)O2)Oc2ccc(cc2Cl)[C@H]1O	–	CAAS-2019-CAAS-2019-09 clinical blaZ-resistant isolate, 25% plasma	–	–	MBC	8 µg/mL (≈ 5.52 µM)
Cc1c2c(nn1C)CSCc1cc(n(C)n1)CSc1cc(c3ccccc3c1)OCCCc1c(C(=O)O)n(C)c3c-2c(Cl)ccc13	label-free proteomics, refers to: rpmC	SA113	concentration not given	reference: untreated	log2 fold change	3.84
CN[C@H](CC(C)C)C(=O)N[C@H]1C(=O)N[C@@H](CC(N)=O)C(=O)N[C@H]2C(=O)N[C@H]3C(=O)N[C@H](C(=O)N[C@H](C(=O)O)c4cc(O)cc(O)c4-c4cc3ccc4O)[C@H](O)c3ccc(c(Cl)c3)Oc3cc2cc(c3O[C@@H]2O[C@H](CO)[C@@H](O)[C@H](O)[C@H]2O[C@H]2C[C@](C)(N)[C@H](O)[C@H](C)O2)Oc2ccc(cc2Cl)[C@H]1O	–	MRSA strain 4	–	–	MIC	2 µg/mL (≈ 1.38 µM)
CC[C@H](C)[C@H](NC(=O)[C@H](C)NC(=O)[C@H](CCCCN)NC(=O)[C@H](CC(C)C)NC(=O)[C@H](C)NC(=O)[C@@H](NC(=O)[C@H](Cc1c[nH]cn1)NC(=O)[C@H](CC(C)C)NC(=O)[C@@H](NC(=O)[C@@H](NC(=O)[C@H](CCCCN)NC(=O)[C@H](C)NC(=O)[C@H](C)NC(=O)[C@H](CO)NC(=O)[C@H](CCCCN)NC(=O)[C@H](Cc1ccccc1)NC(=O)[C@@H](NC(=O)[C@H](CCCCN)NC(=O)[C@H](CC(C)C)NC(=O)[C@H](Cc1ccccc1)NC(=O)[C@H](CO)NC(=O)[C@H](CCCCN)NC(=O)[C@H](Cc1c[nH]c2ccccc12)NC(=O)[C@H](CCCCN)NC(C)=O)[C@@H](C)O)[C@@H](C)O)C(C)C)[C@@H](C)O)C(=O)N[C@@H](CO)C(=O)N[C@@H](CO)C(N)=O	–	MRSA	130 strains	–	MIC50	4 µg/mL (≈ 1.36 µM)
CCCCCCCCCC(=O)N[C@@H](Cc1c[nH]c2ccccc12)C(=O)N[C@H](CC(N)=O)C(=O)N[C@@H](CC(=O)O)C(=O)N[C@@H]1C(=O)NCC(=O)N[C@@H](CCCN)C(=O)N[C@@H](CC(=O)O)C(=O)N[C@H](C)C(=O)N[C@@H](CC(=O)O)C(=O)NCC(=O)N[C@H](CO)C(=O)N[C@@H]([C@H](C)CC(=O)O)C(=O)N[C@@H](CC(=O)c2ccccc2N)C(=O)O[C@@H]1C	broth microdilution	VISA LIM strain 2, Mueller-Hinton broth, Mg2+ 10 mg/L	16 h, with: Ca2+ 1.0 mM	–	MIC	1 µg/mL (≈ 0.617 µM)

Excerpt of the above:
Compound	test	test system	conditions	how to read	endpoint	result
C=CC[C@@H]1c2ccc(OC)c(OC)c2CN2CCc3cc4c(cc3[C@H]12)OCO4	–	P2rx7 A312V/A312V mice, skin wound infection	dose not given, day 7	reference: day 0	relative wound size	0.36 and 0.81 and 0.74 and 0.97 and 0.39 and 0.52
